Results collected from several papers.
Parts stem from different laboratories: compare values within a part only.

Block 1
Target: RNA binding protein fox-1 homolog 2, RRM domain, GST-SBP tag (RBFOX2, Homo sapiens, UniProt O43251-10, residues 100-194)
Method: RNA Bind-n-Seq
Form: RNA
Medium: in vitro
Concentration: 365 nM
Setting: natural RNA segment, single round, ends assumed
Relative to: no-protein control
Reading: higher = stronger binding
Measurement: RBNS enrichment (R)
Constant ends, left off below: GGGAGUUCUACAGUCCGACGAUC … UGGAAUUCUCGGGUGCCAA
Construct (chain): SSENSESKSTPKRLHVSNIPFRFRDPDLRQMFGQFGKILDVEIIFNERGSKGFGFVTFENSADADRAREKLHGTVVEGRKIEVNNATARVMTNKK
AAAGUGAACUUAAAAGGACAUGCCCACUGAAUUCAGGUCCUUUGAGUAAAAAAAAAAUCUUCUGCUGCACAUUUUGUUUAAGUGUUACUGUUUCUGCCUGUUAAUGCUGG: 1.14
AUACACACACAAUAAUUUUUUAAACUCCAUAAAGUUAUUAACAUGUCAGCAGGCAGAGCAUUGCAGUUUAUUUAACUGAUGGCCAGGUUCUUGUUAGAACACCAAGCACA: 0.962
AAACCAGAAAAAAAAAAUCAGAAAAGUGUUCUCAGGUUCACCUUACGUCCUGCCUACAACUCCCGAGUGGCUUUUGGUAGUAACUACCCUGUGUACCCAUUAACAAAGCC: 0.529
AGUCGGGGAACUCCCACUAGCUCACCUGAGGGGGGCUCGAUGCAGCUGAAAUACUGAAUACUGAAAUACUAGAAACCAACAAAACUGGUUUCUAGAAUUCUCCAGGGAUU: 0.234
CUCCCGCCUCGAGCGCAUUGAGUCCACAGAAAUCUGAUCGACCUGGGCACUCGGCAUUUUGACACAUGUCCUGUCAAAAGGCCAGAGUCCCCAGUGUCCCCUCCCCUCCA: 0.314
AUUACUUGGUACAAUAAUUAUUGUAAUUAAGAGAUGUAGCCUUUAUUAAAAUUUUAUAUUUUUCAAACACUGGCCUCGUCUUUGAAUCCCCAGGGUGGGAACAGGGCCGA: 0.38
CUGCCUCUCACAGGUACAGCUGUUUCUUGGAAAUCCUCCAACCAAAUAGCAGUUUUCCUAACUUGAUUAGCUUGAGCUGACAGACUGUUAGAAUACAGUUCUCUGGCCAC: 0.208
AAAAAAAUUGUCCCAGAUGCGUUAAGAAAUAAUAACACCCAGGGAUACUCACCCAUGCAUAGCUACCCAGGGUUAAUUGGUAGCUGGGAUAUCUUUUCGCCUCAGACAGC: 0.404
UAGCCAUUUUAUUUUUUAAGAAACUGCUAAUACUUUCUCCCUAAUGGAAGCCCUGAUCCCCCAGAGAGCUACAGGUCUGCUCCCGACGGGCCUCGGGCCUGACCCGUCCA: 0.417
CCUUGCCACUCAGGGUUUUAGUGGGUGCUCCCACUGCUCAGUGUACCCAUGAGCUGUCGUCAUUCACAGAGCCCUGUGCCAGGCCGUGUUCUGUGCCUGCCUGCGGUGAU: 0.425

Block 2
Target: Prothrombin, mature alpha-thrombin (F2, Homo sapiens, UniProt P00734)
Method: aptamer microarray, sandwich
Form: DNA with 2'F-ANA
Medium: in vitro
Concentration: 200 nM
Setting: whole 15-mer aptamer, many near background
Together with: Cy3 exosite-II aptamer, 400 nM
Reading: higher = stronger binding
Measurement: mean fluorescence intensity
Strand: GGTTGGTGTGGTTGG
2'F-ANA at 1 5 7 9 11 12 13 15: 66.5 a.u.
2'F-ANA at 1 2 4 5 6 7 8 11 12 13: 75.1 a.u.
2'F-ANA at 4 5 7 8 11 12 13 15: 85.3 a.u.
2'F-ANA at 1 5 6 7 8 10 11 15: 48.8 a.u.
2'F-ANA at 1 3 5 6 7 8 9 11 12 14: 111 a.u.
2'F-ANA at 2 4 5 12 14 15: 62.3 a.u.
2'F-ANA at 1 3 10 12 15: 134 a.u.

Block 3
Target: Interferon regulatory factor 3, full length, phosphomimetic (IRF3, Homo sapiens, UniProt Q14653, residues 1-427, S386D/S396D/S398D/S402D/T404D/S405D)
Method: protein-binding microarray
Form: double-stranded DNA, one strand shown
Medium: in vitro
Concentration: 2540 nM top
Setting: 60-bp whole probe
Together with: salmon DNA 0.4 mg/ml
Relative to: random background probes
Reading: higher = stronger binding
Measurement: fitted relative affinity
Constant ends, left off below: GCCTAGCAC … GTCTTGATTCGCTTGACGCTGCTG
Residues (chain): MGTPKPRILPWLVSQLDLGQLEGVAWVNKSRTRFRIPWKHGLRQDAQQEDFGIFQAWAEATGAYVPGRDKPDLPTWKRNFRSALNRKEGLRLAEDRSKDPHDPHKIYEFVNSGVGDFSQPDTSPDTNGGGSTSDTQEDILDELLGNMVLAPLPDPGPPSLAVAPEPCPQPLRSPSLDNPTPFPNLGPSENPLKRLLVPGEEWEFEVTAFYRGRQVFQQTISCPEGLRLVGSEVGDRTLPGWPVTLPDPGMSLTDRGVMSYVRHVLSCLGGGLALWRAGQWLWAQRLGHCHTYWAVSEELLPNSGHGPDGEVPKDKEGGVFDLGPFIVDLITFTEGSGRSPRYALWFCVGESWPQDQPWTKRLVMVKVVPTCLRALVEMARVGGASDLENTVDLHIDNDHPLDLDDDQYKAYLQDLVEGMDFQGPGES
TTATATTTCAGACTGGATTAGTGCTAG: 0.736 z-score
TTAGTTCTCCTACTGCTTTAGTGCTAG: 1.43 z-score
TCAAGAAAAAGAAAAAAAACTGTGCTA: -0.463 z-score
GTCCCCTGTCGGGAGGTCAGGTGCTAG: 0.094 z-score
TTAGGACTGGACCCTGGGTTAGTGCTA: -0.809 z-score
GACGGTATCCTTTTCCTAACGTGCTAG: 7.95 z-score
GTCGGTTCCGGTTTCGGGACGTGCTAG: 7.02 z-score
GACGGTCTCCTTTTTCTGACGTGCTAG: 4.43 z-score
TTAGGTATCGGGGCTGGGTTAGTGCTA: -0.00253 z-score
AGTCATCTCCAAAGTCAGCCAGTGCTA: 0.118 z-score
GTCGGTTTCGGGACTGGGGACGTGCTA: 6.07 z-score

Single results of other studies
PhoQ, residues 284 288 289 292 302 303 AMDMFI  fold induction (PhoP, residues 12 14 15 18 19 HHYTI (Escherichia coli, UniProt P23836); Sort-seq, measured: YFP reporter; E. coli; PhoQ-PhoP variant library, together with: 10 µM Mg2+; relative to: high Mg2+ state, higher = stronger signaling): 2.15

Some of these lines once more (block 1):
CUGCCUCUCACAGGUACAGCUGUUUCUUGGAAAUCCUCCAACCAAAUAGCAGUUUUCCUAACUUGAUUAGCUUGAGCUGACAGACUGUUAGAAUACAGUUCUCUGGCCAC: 0.208
AUUACUUGGUACAAUAAUUAUUGUAAUUAAGAGAUGUAGCCUUUAUUAAAAUUUUAUAUUUUUCAAACACUGGCCUCGUCUUUGAAUCCCCAGGGUGGGAACAGGGCCGA: 0.38
AAAAAAAUUGUCCCAGAUGCGUUAAGAAAUAAUAACACCCAGGGAUACUCACCCAUGCAUAGCUACCCAGGGUUAAUUGGUAGCUGGGAUAUCUUUUCGCCUCAGACAGC: 0.404
